Assay results gathered from unrelated publications.
Numbers after ± are the reported error.
YWHAZ: 14-3-3 protein zeta/delta (YWHAZ, Homo sapiens, UniProt P63104)
Sequence of UniProt P63104 (whole entry, looked up): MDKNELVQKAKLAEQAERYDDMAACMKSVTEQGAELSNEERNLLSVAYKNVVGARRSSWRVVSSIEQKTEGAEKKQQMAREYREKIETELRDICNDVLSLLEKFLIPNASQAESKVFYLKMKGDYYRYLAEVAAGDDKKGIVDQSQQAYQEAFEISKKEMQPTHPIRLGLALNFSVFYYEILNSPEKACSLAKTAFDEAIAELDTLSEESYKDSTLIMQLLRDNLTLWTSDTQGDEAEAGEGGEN
lecA: PA-I galactophilic lectin (lecA, Pseudomonas aeruginosa, UniProt Q05097)
Sequence of UniProt Q05097 (whole entry, looked up): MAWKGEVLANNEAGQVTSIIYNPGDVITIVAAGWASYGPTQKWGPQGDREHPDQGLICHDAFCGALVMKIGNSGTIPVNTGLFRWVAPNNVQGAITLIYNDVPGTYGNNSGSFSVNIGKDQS
Sequence of UniProt P41595 (whole entry, looked up): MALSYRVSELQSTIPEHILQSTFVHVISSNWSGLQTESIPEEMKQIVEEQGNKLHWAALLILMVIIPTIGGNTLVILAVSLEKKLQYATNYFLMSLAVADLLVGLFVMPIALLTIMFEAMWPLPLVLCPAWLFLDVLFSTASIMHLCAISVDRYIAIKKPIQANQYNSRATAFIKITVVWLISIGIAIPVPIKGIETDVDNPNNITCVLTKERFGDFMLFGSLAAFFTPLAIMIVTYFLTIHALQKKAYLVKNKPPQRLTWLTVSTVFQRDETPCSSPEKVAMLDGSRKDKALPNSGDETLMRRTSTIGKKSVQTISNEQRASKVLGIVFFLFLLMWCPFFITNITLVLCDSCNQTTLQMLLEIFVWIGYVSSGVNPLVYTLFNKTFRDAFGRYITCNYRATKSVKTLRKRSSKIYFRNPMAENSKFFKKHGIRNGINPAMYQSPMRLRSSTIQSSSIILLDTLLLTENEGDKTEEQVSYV
Sequence of UniProt P12004 (whole entry, looked up): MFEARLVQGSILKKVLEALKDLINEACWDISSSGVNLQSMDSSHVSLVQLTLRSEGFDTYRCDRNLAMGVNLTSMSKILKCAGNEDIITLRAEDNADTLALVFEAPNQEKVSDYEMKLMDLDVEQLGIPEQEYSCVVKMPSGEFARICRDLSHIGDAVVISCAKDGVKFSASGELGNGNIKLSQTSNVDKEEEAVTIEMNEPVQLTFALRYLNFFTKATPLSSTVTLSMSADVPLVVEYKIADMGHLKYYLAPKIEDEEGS
Sequence of UniProt Q9NZC7 (whole entry, looked up): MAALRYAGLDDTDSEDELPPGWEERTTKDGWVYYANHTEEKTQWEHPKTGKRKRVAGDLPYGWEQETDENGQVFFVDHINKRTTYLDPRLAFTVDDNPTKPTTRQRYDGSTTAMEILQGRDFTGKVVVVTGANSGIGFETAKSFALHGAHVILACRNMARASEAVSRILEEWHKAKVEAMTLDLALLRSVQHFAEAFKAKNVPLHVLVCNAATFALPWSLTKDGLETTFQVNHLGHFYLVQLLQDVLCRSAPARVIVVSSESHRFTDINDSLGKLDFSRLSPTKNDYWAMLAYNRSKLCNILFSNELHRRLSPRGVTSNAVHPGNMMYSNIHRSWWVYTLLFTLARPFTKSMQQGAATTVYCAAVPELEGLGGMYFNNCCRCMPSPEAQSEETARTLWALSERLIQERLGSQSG
Sequence of UniProt O49687 (whole entry, looked up): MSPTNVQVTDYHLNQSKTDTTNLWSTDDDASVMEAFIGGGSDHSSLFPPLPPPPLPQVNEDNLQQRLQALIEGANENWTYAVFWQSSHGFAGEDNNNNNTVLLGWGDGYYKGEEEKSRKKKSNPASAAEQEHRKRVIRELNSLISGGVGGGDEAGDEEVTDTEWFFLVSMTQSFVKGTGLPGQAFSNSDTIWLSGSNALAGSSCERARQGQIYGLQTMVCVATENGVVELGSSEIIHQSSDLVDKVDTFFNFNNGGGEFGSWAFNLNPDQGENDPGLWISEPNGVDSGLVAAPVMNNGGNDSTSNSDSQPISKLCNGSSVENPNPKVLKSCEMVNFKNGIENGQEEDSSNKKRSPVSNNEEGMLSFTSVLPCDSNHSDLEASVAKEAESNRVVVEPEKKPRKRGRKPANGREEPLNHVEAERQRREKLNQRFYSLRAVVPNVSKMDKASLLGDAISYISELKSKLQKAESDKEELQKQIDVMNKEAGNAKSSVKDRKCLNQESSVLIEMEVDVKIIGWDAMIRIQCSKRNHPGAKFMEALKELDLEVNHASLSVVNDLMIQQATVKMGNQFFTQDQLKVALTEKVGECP
Sequence of UniProt P63165 (whole entry, looked up): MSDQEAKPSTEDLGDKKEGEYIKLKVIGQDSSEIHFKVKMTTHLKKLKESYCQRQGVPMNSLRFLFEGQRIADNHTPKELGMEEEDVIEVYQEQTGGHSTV
Sequence of UniProt P00691 (whole entry, looked up): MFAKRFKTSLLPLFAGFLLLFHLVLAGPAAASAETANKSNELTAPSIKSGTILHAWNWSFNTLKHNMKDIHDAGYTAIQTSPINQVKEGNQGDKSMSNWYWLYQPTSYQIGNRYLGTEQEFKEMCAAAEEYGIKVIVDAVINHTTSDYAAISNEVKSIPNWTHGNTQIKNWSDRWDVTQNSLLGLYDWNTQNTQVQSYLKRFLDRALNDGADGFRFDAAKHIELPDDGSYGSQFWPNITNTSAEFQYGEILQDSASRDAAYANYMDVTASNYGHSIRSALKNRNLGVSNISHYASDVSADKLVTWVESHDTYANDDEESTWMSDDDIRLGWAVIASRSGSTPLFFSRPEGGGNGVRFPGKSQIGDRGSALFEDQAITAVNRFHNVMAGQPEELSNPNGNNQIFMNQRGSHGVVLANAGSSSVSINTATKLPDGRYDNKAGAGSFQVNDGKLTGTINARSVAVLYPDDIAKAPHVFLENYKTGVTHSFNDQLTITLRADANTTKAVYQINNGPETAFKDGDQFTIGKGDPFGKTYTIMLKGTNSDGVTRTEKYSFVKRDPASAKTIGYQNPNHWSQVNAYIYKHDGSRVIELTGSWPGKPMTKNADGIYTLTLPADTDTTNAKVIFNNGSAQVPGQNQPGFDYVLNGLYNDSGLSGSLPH
Sequence of UniProt O35082 (whole entry, looked up): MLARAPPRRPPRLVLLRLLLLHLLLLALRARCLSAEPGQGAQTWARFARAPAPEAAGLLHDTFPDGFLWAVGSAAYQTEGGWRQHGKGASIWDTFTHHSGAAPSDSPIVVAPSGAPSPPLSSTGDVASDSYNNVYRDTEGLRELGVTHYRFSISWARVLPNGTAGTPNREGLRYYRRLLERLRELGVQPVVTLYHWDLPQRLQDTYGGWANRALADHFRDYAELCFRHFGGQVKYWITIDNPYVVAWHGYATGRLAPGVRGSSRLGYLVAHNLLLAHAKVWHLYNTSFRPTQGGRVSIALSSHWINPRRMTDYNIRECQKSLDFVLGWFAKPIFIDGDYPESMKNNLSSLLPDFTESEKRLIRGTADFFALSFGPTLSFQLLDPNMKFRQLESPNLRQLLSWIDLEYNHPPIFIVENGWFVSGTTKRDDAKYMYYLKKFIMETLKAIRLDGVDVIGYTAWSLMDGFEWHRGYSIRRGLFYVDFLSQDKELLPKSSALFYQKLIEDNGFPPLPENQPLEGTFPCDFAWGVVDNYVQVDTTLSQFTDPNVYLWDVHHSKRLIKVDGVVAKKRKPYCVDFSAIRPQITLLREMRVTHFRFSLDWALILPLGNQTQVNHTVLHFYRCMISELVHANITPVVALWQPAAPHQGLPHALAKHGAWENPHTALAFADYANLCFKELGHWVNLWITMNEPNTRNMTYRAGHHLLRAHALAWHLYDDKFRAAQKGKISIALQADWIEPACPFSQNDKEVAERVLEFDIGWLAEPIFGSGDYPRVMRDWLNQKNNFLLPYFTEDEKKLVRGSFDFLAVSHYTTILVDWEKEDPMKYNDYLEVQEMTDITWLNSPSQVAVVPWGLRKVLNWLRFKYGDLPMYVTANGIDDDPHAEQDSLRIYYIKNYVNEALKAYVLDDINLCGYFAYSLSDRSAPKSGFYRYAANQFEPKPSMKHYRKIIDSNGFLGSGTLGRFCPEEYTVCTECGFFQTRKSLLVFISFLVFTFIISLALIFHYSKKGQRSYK
Sequence of UniProt Q9NQG5 (whole entry, looked up): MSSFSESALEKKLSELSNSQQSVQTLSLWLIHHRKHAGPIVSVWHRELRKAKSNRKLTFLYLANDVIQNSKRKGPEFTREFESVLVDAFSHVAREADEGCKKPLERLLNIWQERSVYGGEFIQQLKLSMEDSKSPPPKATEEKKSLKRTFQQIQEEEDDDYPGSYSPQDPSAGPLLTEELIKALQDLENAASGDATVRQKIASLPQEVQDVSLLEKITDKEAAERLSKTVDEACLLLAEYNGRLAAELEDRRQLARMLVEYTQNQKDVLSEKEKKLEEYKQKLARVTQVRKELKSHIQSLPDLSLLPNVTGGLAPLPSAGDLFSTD
Sequence of UniProt Q9Y294 (whole entry, looked up): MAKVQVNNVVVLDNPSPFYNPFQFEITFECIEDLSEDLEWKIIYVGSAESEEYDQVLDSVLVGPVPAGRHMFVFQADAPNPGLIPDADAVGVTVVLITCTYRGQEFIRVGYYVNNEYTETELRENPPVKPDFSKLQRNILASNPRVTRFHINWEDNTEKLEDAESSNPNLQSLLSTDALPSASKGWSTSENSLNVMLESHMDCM

| SMILES | target | test | test system | conditions | Kd [µM] |
| --- | --- | --- | --- | --- | --- |
| CC[C@H](C)[C@H](NC(=O)[C@@H](NC(=O)[C@H](Cc1c[nH]c2ccccc12)NC(=O)[C@H](CCC(=O)O)NC(=O)[C@H](CO)NC(=S)Nc1ccc2c(c1)C(=O)OC21c2ccc(O)cc2Oc2cc(O)ccc21)C(C)C)C(=O)N[C@H](C(=O)N[C@@H](C)C(=O)N1CCC[C@H]1C(=O)N[C@@H](Cc1ccccc1)C(=O)N[C@@H](CC(C)C)C(=O)N[C@H](C(=O)N[C@@H](CC(N)=O)C(=O)N[C@@H](CC(C)C)C(=O)O)[C@@H](C)O)C(C)C | Rgg transcriptional regulator (Streptococcus pneumoniae, UniProt A0A0E7KI02) | binder, fluorescence polarization | – | 20 min, pH 7.4, 20 °C, fluorescein-labelled peptide | 23.5 |
| CCCCCCCCCCCCCCCC(=O)NCCCC[C@H](NC(=O)[C@H](CCCNC(=N)N)NC(=O)[C@H](Cc1ccc(O)cc1)NC(=O)[C@H](CC(C)C)NC(=O)[C@H](CCCNC(=N)N)NC(=O)CNS(=O)(=O)c1ccc(N)cc1)C(N)=O | lipopolysaccharide | binding, fluorescence quenching | – | – | ~0.000793 |
| CC(C)C[C@H](NC(=O)[C@H](Cc1c[nH]c2ccccc12)NC(=O)[C@H](CCCCN)NC(=O)[C@H](CCC(=O)O)NC(=O)[C@@H]1CCCN1C(=O)[C@@H](N)CS)C(=O)NCC(=O)N[C@H](C(=O)N[C@@H](CS)C(=O)O)[C@@H](C)O | Small ubiquitin-related modifier 1 (Homo sapiens, UniProt P63165) | binding, ITC | – | – | 0.123 |
| C[C@H](N)C(=O)N[C@@H](CCCNC(=N)N)C(=O)N[C@H](C(=O)N[C@@H](CCCC[N+](C)(C)C)C(=O)N[C@@H](CCC(N)=O)C(=O)N[C@H](C(=O)N[C@@H](C)C(=O)N[C@@H](CCCNC(=N)N)C(=O)N[C@@H](CCCCN)C(=O)N[C@@H](CO)C(=O)N[C@H](C(=O)NCC(=O)O)[C@@H](C)O)[C@@H](C)O)[C@@H](C)O | Protein partner of snf, PHD domain (Drosophila melanogaster, UniProt Q9VG78) | intrinsic tryptophan fluorescence | – | pH 7.5, 25 °C, PHD finger | 1.9 |
| C[C@@H](O)[C@H](NC(=O)[C@@H]1CCCN1C(=O)[C@H](CO)NC(=O)[C@H](Cc1ccc(O)cc1)NC(=O)[C@H](CO)NC(=O)[C@@H]1CCCN1C(=O)[C@H](COP(=O)(O)O)NC(=O)[C@@H](NC(=O)[C@@H]1CCCN1C(=O)[C@H](CO)NC(=O)[C@H](Cc1ccc(O)cc1)NC(=O)[C@H](CO)NC(=O)[C@@H]1CCCN1C(=O)[C@@H](N)CO)[C@@H](C)O)C(=O)N[C@@H](COP(=O)(O)O)C(=O)N1CCC[C@H]1C(=O)N[C@@H](CO)C(=O)N[C@@H](Cc1ccc(O)cc1)C(=O)N[C@@H](CO)C(=O)O | Regulation of nuclear pre-mRNA domain-containing protein 1B, CID domain (RPRD1B, Homo sapiens, UniProt Q9NQG5) | isothermal titration calorimetry | – | pH 7.5, 25 °C | > 1000 |
| CSCC[C@@H]1NC(=O)[C@H](CO)NC(=O)[C@@H](NC(=O)[C@H](CCC(N)=O)NC(=O)[C@H](CCCNC(=N)N)NC(C)=O)CSCCCSC[C@@H](C(=O)N[C@@H](Cc2ccccc2)C(=O)N[C@@H](Cc2ccc(O)cc2)C(=O)N[C@@H](Cc2c[nH]cn2)C(=O)N[C@@H](CO)C(=O)N[C@@H](CCCCN)C(N)=O)NC(=O)[C@H]([C@@H](C)O)NC1=O | PCNA (Homo sapiens, UniProt P12004) | binding, SPR | – | – | 0.769 |
| C#CC[C@H](NC(=O)CNC(=O)[C@H](CO)NC(=O)[C@@H]1CCCCNC(=O)CCCC(=O)N[C@@H](CCSC)C(=O)N[C@@H](Cc2c[nH]c3ccccc23)C(=O)N2CCC[C@H]2C(=O)N[C@@H](Cc2c[nH]cn2)C(=O)N[C@@H](CCCNC(=N)N)C(=O)N[C@@H](C(C)C)C(=O)N[C@@H]([C@@H](C)O)C(=O)N[C@@H](C)C(=O)N(C)[C@@H](C)C(=O)N1)C(=O)O | Microtubule-associated protein 1 light chain 3 beta (Homo sapiens, UniProt Q9GZQ8) | fluorescence polarization | – | – | 0.192 ± 0.039 |
| CC(C)P(=S)(NP(=[Se])(C(C)C)C(C)C)C(C)C | Alpha-amylase (Bacillus subtilis, UniProt P00691) | fluorescence quenching | – | 298 K | 434 |
| CC[C@H](C)[C@H](NC(=O)[C@@H](N)CCCCN)C(=O)N1CCC[C@H]1C(=O)N[C@@H](Cc1ccc(O)cc1)C(=O)N[C@@H](Cc1ccccc1)C(=O)N[C@@H](Cc1c[nH]cn1)C(=O)N[C@@H](C)C(=O)NCC(=O)NCC(=O)N[C@@H](CO)C(=O)N[C@@H](CCCCN)C(=O)N[C@@H](CS)C(=O)N[C@@H](CO)C(=O)N[C@H](C(=O)N[C@@H](Cc1ccc(O)cc1)C(=O)N1CCC[C@H]1C(=O)N[C@@H](CC(C)C)C(=O)N1CCC[C@H]1C(=O)N[C@@H](CCC(N)=O)C(=O)N1CCC[C@H]1C(=O)N[C@@H](CO)C(=O)O)[C@@H](C)OP(=O)(O)O | YWHAZ | binding, isothermal titration calorimetry | – | 37 °C, second site, two-site model, added: phosphorylated PRLR peptide | 2.3 ± 0.2 |
| CC(=O)NC1C(OC2C(O)C(O)OC(CO)C2O)OC(CO)C(O)C1OC1OC(CO)C(O)C(OC2OC(CO)C(O)C(O)C2O)C1OC1OC(C)C(O)C(O)C1O (stereo not drawn) | sly, domain 4 (Streptococcus suis, UniProt Q55996) | binding | – | – | 6.4 |
| CC[C@H](C)[C@H](NC(=O)[C@H](Cc1c[nH]cn1)NC(=O)[C@H](CCCCNC(=O)[C@@H](NC(=O)[C@H](CCCCN)NC(=O)CSC[C@H](NC(=O)[C@H](Cc1ccccc1)NC(=O)[C@H](CCCCNC(=O)[C@H](CC(C)C)NC(=O)[C@@H]1CCCN1C(=O)[C@H](CCCCN)NC(=O)C[C@@H]1O[C@@H](C)[C@@H](O)[C@@H](O)[C@@H]1O)NC(=O)[C@H](CC(C)C)NC(=O)[C@@H]1CCCN1C(=O)[C@H](CCCCN)NC(=O)CCS[C@@H]1O[C@H](CO)[C@H](O)[C@H](O)[C@H]1O)C(N)=O)[C@@H](C)CC)NC(=O)[C@@H](NC(=O)[C@H](CCCCN)NC(=O)CSC[C@H](NC(=O)[C@H](Cc1ccccc1)NC(=O)[C@H](CCCCNC(=O)[C@H](CC(C)C)NC(=O)[C@@H]1CCCN1C(=O)[C@H](CCCCN)NC(=O)C[C@@H]1O[C@@H](C)[C@@H](O)[C@@H](O)[C@@H]1O)NC(=O)[C@H](CC(C)C)NC(=O)[C@@H]1CCCN1C(=O)[C@H](CCCCN)NC(=O)CCS[C@@H]1O[C@H](CO)[C@H](O)[C@H](O)[C@H]1O)C(N)=O)[C@@H](C)CC)C(N)=O | lecA | binding, ITC | – | pH 7.5 | 0.12 |
| CC[C@H](C)[C@H](NC(=O)[C@H](CCCNC(=N)N)NC(=O)[C@H](CCCNC(=N)N)NC(=O)[C@H](C)NC(=O)[C@H](CC(C)C)NC(=O)[C@H](CCCNC(=N)N)NC(=O)[C@H](C)NC(=O)[C@H](Cc1ccc2ccccc2c1)NC(=O)[C@H](CCCCN)NC(=O)[C@H](CCC(=O)O)NC(C)=O)C(=O)N[C@@H](C)C(N)=O | Histone chaperone ASF1A (Homo sapiens, UniProt Q9Y294) | binding, ITC | – | pH 7.5 | 0.2 |
| CC(C)C[C@H](NC(=O)[C@@H]1CCCN1C(=O)[C@H](CC(=O)O)NC(=O)[C@H](CO)NC(=O)[C@H](C)NC(=O)CC1c2ccccc2-c2ccccc21)C(=O)NCC(=O)N[C@H](C(=O)N[C@H](C(=O)N[C@@H](CCCNC(=N)N)C(=O)NCC(=O)N[C@@H](CCCNC(=N)N)C(=O)N[C@@H](C)C(=O)N[C@@H](CCCNC(=N)N)C(N)=O)C(C)C)C(C)C | Klotho (Kl, Mus musculus, UniProt O35082) | BLI competition binding | – | 30 min, 30 °C, added: 100 nM mouse Klotho, immobilized Pep-10-Biotin | 0.009 ± 0.005 |
| Cc1cc(-c2ccc3ccccc3c2)nnc1NCCN1CCN(C)CC1 | HTR2B (Homo sapiens, UniProt P41595) | β-arrestin-1 recruitment, antagonist, Schild analysis | – | added: serotonin | 0.102 |
| CC[C@H](C)[C@H](NC(=O)[C@H](Cc1c[nH]cn1)NC(=O)[C@H](CCCCNC(=O)[C@@H](NC(=O)[C@H](CCCCN)NC(=O)CSC[C@H](NC(=O)[C@H](Cc1ccccc1)NC(=O)[C@H](CCCCNC(=O)[C@H](CC(C)C)NC(=O)[C@H](CCCCN)NC(=O)[C@H](CCCCN)NC(=O)CCS[C@@H]1O[C@H](CO)[C@H](O)[C@H](O)[C@H]1O)NC(=O)[C@H](CC(C)C)NC(=O)[C@H](CCCCN)NC(=O)[C@H](CCCCN)NC(=O)C[C@@H]1O[C@@H](C)[C@@H](O)[C@@H](O)[C@@H]1O)C(N)=O)[C@@H](C)CC)NC(=O)[C@@H](NC(=O)[C@H](CCCCN)NC(=O)CSC[C@H](NC(=O)[C@H](Cc1ccccc1)NC(=O)[C@H](CCCCNC(=O)[C@H](CC(C)C)NC(=O)[C@H](CCCCN)NC(=O)[C@H](CCCCN)NC(=O)CCS[C@@H]1O[C@H](CO)[C@H](O)[C@H](O)[C@H]1O)NC(=O)[C@H](CC(C)C)NC(=O)[C@H](CCCCN)NC(=O)[C@H](CCCCN)NC(=O)C[C@@H]1O[C@@H](C)[C@@H](O)[C@@H](O)[C@@H]1O)C(N)=O)[C@@H](C)CC)C(N)=O | lecA | binding, ITC | – | pH 7.5 | 0.34 |
| CC(C)C[C@H](NC(=O)[C@H](CCCNC(=N)N)NC(=O)[C@H](CCC(=O)O)NC(=O)[C@H](CCCCN)NC(=O)[C@H](CCCNC(=N)N)NC(=O)[C@H](CCCCN)NC(=O)[C@H](CCC(=O)O)NC(=O)[C@H](CC(C)C)NC(=O)[C@H](Cc1ccccc1)NC(=O)[C@H](CCCNC(=N)N)NC(=O)[C@H](C)NC(=O)[C@H](CC(C)C)NC(=O)[C@H](CO)NC(=O)[C@]1(C)CCCC=CCCC[C@](C)(NC(=O)[C@@H]2CCCN2C(=O)[C@@H](NC(=O)[C@H](CO)NC(=O)c2ccc3c(c2)C(=O)OC32c3ccc(N(C)C)cc3Oc3cc(N(C)C)ccc32)C(C)C)C(=O)N[C@@H](C)C(=O)N[C@@H](CCCNC(=N)N)C(=O)N[C@@H](CCCCN)C(=O)N1)C(=O)O | Transcription factor MYC4 (MYC4, Arabidopsis thaliana, UniProt O49687) | binding, fluorescence anisotropy | – | pH 8.0, MYC4 residues 55-253 | 2.6 ± 0.3 |
| CC(C)C[C@H](NC(=O)[C@H](CCC(N)=O)NC(=O)[C@H](CCCCN)NC(=O)[C@H](CCCNC(=N)N)NC(=O)[C@@H]1CCCN1C(=O)[C@H](C)NC(=O)[C@H](CCCCN)NC(=O)CNC(=O)[C@@H]1CCCN1C(=O)[C@@H](NC(=O)[C@H](COP(=O)(O)O)NC(=O)[C@H](CCCCN)NC(=O)[C@H](CCCNC(=N)N)NC(=O)[C@H](C)NC(=O)[C@@H](NC(=O)[C@H](CCC(N)=O)NC(=O)[C@H](CCCCN)NC(=O)[C@@H](NC(=O)[C@H](CCCNC(=N)N)NC(=O)[C@H](C)N)[C@@H](C)O)[C@@H](C)O)[C@@H](C)O)C(=O)O | YWHAZ | binding, fluorescence polarization | – | added: modified histone H3 peptides | 19.9 |
| CC[C@H](C)[C@H](NC(=O)[C@@H]1CCCN1C(=O)[C@@H]1CCCN1C(=O)[C@@H]1CCCN1C(=O)[C@@H](NC(=O)[C@H](CC(N)=O)NC(=O)[C@H](Cc1ccccc1)NC(=O)[C@H](C)N)[C@@H](C)CC)C(=O)N[C@@H](Cc1ccc(O)cc1)C(=O)N[C@H](C(=O)N[C@@H](CO)C(=O)N[C@@H](CCCNC(=N)N)C(=O)N[C@@H](C)C(=O)O)[C@@H](C)O | WW domain-containing oxidoreductase, WW1-WW2 tandem domains (WWOX, Homo sapiens, UniProt Q9NZC7) | ITC | tandem WW1-WW2 domain | pH 7.8, 20 °C, some values lower limits only | > 100 |

For quick reference, copied from above:
| SMILES | target | test | test system | conditions | Kd [µM] |
| --- | --- | --- | --- | --- | --- |
| CSCC[C@@H]1NC(=O)[C@H](CO)NC(=O)[C@@H](NC(=O)[C@H](CCC(N)=O)NC(=O)[C@H](CCCNC(=N)N)NC(C)=O)CSCCCSC[C@@H](C(=O)N[C@@H](Cc2ccccc2)C(=O)N[C@@H](Cc2ccc(O)cc2)C(=O)N[C@@H](Cc2c[nH]cn2)C(=O)N[C@@H](CO)C(=O)N[C@@H](CCCCN)C(N)=O)NC(=O)[C@H]([C@@H](C)O)NC1=O | PCNA (Homo sapiens, UniProt P12004) | binding, SPR | – | – | 0.769 |
| C#CC[C@H](NC(=O)CNC(=O)[C@H](CO)NC(=O)[C@@H]1CCCCNC(=O)CCCC(=O)N[C@@H](CCSC)C(=O)N[C@@H](Cc2c[nH]c3ccccc23)C(=O)N2CCC[C@H]2C(=O)N[C@@H](Cc2c[nH]cn2)C(=O)N[C@@H](CCCNC(=N)N)C(=O)N[C@@H](C(C)C)C(=O)N[C@@H]([C@@H](C)O)C(=O)N[C@@H](C)C(=O)N(C)[C@@H](C)C(=O)N1)C(=O)O | Microtubule-associated protein 1 light chain 3 beta (Homo sapiens, UniProt Q9GZQ8) | fluorescence polarization | – | – | 0.192 ± 0.039 |
| CC(C)P(=S)(NP(=[Se])(C(C)C)C(C)C)C(C)C | Alpha-amylase (Bacillus subtilis, UniProt P00691) | fluorescence quenching | – | 298 K | 434 |
